Measurements collected from several papers.
Every numbered part comes from another study and shows a few of its results, in no order. Changes are numbered by the printed parent chain.

Study 1 — technique: aptamer microarray, sandwich; molecule type: DNA with 2'F-ANA; medium: in vitro; tested at: 200 nM; added: Cy3 exosite-II aptamer, 400 nM; direction: higher = stronger binding; strand: GGTTGGTGTGGTTGG
Target: Prothrombin, mature alpha-thrombin (F2, Homo sapiens, UniProt P00734)
Setting: whole 15-mer aptamer, many near background
Modification	mean fluorescence intensity
2'F-ANA at 1 4 6 7 8 9 10 11 12 13 14	45.9 a.u.
2'F-ANA at 1 7 9 10 11 14	52.5 a.u.
2'F-ANA at 1 2 3 7 8 9 10 11 12 13 15	79 a.u.
2'F-ANA at 1 2 6 9 10 12 13 15	67.2 a.u.
2'F-ANA at 1 3 6 7 8 9 10 11 15	78.6 a.u.
2'F-ANA at 3 7 8 9 13 14 15	671 a.u.
2'F-ANA at 1 3 8 10 11 13 14 15	57.5 a.u.
2'F-ANA at 1 5 6 10 11 14	48.4 a.u.
2'F-ANA at 2 4 6 8 10 14 15	58.7 a.u.
2'F-ANA at 2 5 6 8 9 11 12 13 15	87.4 a.u.
2'F-ANA at 3 4 6 8 9 10 11 14 15	158 a.u.
2'F-ANA at 2 4 5 6 9 10 11 12 13 14	49.1 a.u.
2'F-ANA at 1 2 4 5 10 12 15	51.2 a.u.
2'F-ANA at 2 3 7 9 10 11 12 13 14	263 a.u.

Study 2 — target: TEF, bZIP domain (human); technique: DHFR protein complementation; medium: yeast; relative to: wild-type JUN-FOS pair; direction: higher = stronger binding
Setting: single substitutions, most at no-binding floor
Starting sequence: JUN, bZIP domain (human); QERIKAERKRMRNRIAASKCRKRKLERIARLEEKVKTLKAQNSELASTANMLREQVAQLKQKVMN; partner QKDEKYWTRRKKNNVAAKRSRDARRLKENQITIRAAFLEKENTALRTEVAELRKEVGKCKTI
Change	binding fitness [natural log]
S43D	-1.43
L31C	-1.49
R53M	-1.44
E44T	-1.31
L38W	-1.54
A40Y	-1.45
R53W	-1.56

Study 3 — technique: RNA Bind-n-Seq; molecule type: RNA; medium: in vitro; tested at: not given; relative to: input RNA pool; direction: higher = stronger binding
Target: RING finger protein unkempt homolog, zinc fingers 1-6, GST-SBP tag (UNK, Homo sapiens, UniProt Q9C0B0, residues 30-357)
Setting: RNA with constant flanks, human and mouse sites, ends assumed
All sequences stand within: GGGAGUUCUACAGUCCGACGAUC … CAACAGAGGAUUGAGCAUCA
Construct (chain): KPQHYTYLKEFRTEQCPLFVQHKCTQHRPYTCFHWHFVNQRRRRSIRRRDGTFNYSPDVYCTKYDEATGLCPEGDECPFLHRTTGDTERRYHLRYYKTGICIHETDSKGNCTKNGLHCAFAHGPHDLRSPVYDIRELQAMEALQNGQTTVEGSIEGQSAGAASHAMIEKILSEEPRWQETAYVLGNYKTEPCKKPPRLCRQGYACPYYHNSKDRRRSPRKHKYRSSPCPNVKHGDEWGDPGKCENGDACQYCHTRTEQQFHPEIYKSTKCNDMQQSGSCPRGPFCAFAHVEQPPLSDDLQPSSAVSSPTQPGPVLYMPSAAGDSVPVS
Strand	bound/input enrichment [ratio]
GAUUACCUGAGGUGGGUGAGCAUCAGUGGGUUCUUGGAUGACUGUUUCCUGACGAUUCUUUUCAUGCUGUACUAUGGAGUAUAUGAAGGGGACUUCACACUUCAUCUGGUACUGCCACUG	0.0843
GAUACAAAAAGGCUUUCCAAAGAGGAAAAGGGUCGCAGCAGUUGUGGUAGAAAUUUCUGGGUUAGUGGACUCUCUUCUACAACCAGAGCUACAGAUUUGAAGAAUCUUUUCAGCAAAUAU	0.267
CCUGAAACUCCAAAGCAAAAAGGUGAAGGCCGGCCUGAAACUCCAAAACAUAGGCAUGAAAAUAGGAGGGAUUCUGGAAAGCCAUCAACAGAGAAGAAACCCGAUGUGUCUAAGCAUAAA	0.778
GCACAGAUUCAUCAAUUCAGAGAGGAUUCAUUGGAUAGCGUUCUUUUUUUAAAGAAGAUUGAUAGAUGCUGGCAAAACCAUUGCAGACAAAUGAUCAUGAUCAGGAGCAUUUUUUUGUUU	0.402
CUCUCCGGUCUCCAGAGCCCUAGCGCAGGAUGUUCGUGCUGGUGGAGAUGGUGGACACCGUGCGCAUACCCCCGUGGCAGUUUGAGCGGAAACUCAACGAUUCCAUUGCUGAGGAGCUGA	0.0939
UCUCAAAGUAGAGCCGAAUAUGAUUCAGAGGAGAGUCUGGGAAGUGAUGAUGAUGACAAUGAUGAUGAUGAUGAUGUUUUAGCAUCAGAUUUCCAUCUCCAGGAACAUUCUAAUUCAAAU	0.329
CAUAUAAAGCAAAAUGGAAAAUUAGAAGAUAACCCUUGCUCUGGUAGUCCUCCGAGGACUACAUUGUUGGGGACCAUAUUUUCGCCUGUCUUCAACUUUUUUUCACCAGCAAAUAAAAAU	0.209

Mixed results
Molecule	target	test	system	setting	how to read	measurement	result
PhoQ, residues 284 288 289 292 302 303 SLGVVW	PhoP, residues 12 14 15 18 19 NHTVL (Escherichia coli, UniProt P23836)	Sort-seq, measured: YFP reporter	E. coli	PhoQ-PhoP variant library, added: 10 µM Mg2+	relative to: high Mg2+ state, higher = stronger signaling	fold induction	5.56

A few entries again (study 1):
Modification	mean fluorescence intensity
2'F-ANA at 1 3 8 10 11 13 14 15	57.5 a.u.
2'F-ANA at 1 5 6 10 11 14	48.4 a.u.
2'F-ANA at 2 4 6 8 10 14 15	58.7 a.u.
